# Measurements from different studies.
# Lines come from different studies, so protocols differ. Several values in a cell are separate wells, animals, samples, runs or records. ± gives the spread as reported.
# Genome polyprotein NS3 helicase domain: Genome polyprotein, NS3 helicase domain (Hepatitis C virus genotype 1b, UniProt Q9WMX2)
# CALM1 Ca2+-bound C-lobe: Calmodulin-1, Ca2+-bound C-lobe (CALM1, Homo sapiens, UniProt P0DP23)
# ESR1: Estrogen receptor (ESR1, Homo sapiens, UniProt P03372)
# NAA80: N-alpha-acetyltransferase 80 (NAA80, Homo sapiens, UniProt Q93015)
# UniProt Q93015, sequence (whole entry, looked up): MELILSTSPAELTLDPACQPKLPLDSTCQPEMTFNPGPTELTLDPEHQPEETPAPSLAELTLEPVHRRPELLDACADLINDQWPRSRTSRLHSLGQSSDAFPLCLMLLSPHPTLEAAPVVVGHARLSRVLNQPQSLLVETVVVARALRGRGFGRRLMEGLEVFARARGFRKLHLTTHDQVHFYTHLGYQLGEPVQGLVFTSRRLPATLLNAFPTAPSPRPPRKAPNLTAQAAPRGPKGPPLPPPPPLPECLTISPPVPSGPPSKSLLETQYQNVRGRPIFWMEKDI
# WD repeat-containing protein 91 WD40 domain, residues 392–747: WD repeat-containing protein 91, WD40 domain, residues 392–747 (Homo sapiens, UniProt A4D1P6)
# UniProt P61204, sequence (whole entry, looked up): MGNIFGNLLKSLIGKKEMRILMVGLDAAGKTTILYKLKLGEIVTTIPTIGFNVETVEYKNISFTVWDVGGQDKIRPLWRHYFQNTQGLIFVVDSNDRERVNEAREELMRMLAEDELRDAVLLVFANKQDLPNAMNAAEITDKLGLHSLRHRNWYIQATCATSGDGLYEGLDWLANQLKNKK
# UniProt A4D1P6, sequence (whole entry, looked up): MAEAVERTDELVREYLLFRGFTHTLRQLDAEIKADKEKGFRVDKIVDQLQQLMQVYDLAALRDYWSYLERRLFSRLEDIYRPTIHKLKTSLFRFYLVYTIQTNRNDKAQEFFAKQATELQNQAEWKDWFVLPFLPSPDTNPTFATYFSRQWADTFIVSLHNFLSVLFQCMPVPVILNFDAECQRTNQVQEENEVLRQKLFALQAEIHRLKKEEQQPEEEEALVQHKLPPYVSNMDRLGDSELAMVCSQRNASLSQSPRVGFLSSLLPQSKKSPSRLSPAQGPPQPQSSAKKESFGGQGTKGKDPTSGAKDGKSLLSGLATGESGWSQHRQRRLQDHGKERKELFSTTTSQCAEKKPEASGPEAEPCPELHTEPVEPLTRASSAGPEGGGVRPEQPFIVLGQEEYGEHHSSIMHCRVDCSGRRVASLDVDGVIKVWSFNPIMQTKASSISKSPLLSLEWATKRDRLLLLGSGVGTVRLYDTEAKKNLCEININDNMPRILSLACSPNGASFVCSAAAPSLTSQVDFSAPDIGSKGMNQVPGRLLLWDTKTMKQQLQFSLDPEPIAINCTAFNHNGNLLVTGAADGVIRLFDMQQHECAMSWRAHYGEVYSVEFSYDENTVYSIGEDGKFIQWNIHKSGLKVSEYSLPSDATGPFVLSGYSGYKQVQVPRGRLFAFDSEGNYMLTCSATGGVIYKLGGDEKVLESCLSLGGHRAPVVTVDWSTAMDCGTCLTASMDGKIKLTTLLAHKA
# UniProt Q92570, sequence (whole entry, looked up): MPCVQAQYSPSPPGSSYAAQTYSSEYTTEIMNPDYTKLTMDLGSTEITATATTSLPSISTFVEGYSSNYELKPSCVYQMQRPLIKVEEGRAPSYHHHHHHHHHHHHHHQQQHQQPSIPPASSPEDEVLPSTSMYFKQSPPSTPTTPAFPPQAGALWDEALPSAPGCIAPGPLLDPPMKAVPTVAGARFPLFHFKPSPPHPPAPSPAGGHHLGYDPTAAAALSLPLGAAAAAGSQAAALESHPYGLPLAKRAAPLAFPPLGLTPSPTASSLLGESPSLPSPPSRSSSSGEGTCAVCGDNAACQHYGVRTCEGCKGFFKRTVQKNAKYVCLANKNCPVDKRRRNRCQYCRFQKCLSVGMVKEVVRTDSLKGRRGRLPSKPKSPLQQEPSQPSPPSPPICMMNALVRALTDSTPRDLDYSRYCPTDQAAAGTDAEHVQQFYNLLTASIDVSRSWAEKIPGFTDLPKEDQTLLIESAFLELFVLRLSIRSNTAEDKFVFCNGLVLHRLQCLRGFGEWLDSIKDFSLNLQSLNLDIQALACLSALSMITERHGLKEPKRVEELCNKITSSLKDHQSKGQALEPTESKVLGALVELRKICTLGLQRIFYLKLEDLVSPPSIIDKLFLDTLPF
# UniProt Q9ZMY2, sequence (whole entry, looked up): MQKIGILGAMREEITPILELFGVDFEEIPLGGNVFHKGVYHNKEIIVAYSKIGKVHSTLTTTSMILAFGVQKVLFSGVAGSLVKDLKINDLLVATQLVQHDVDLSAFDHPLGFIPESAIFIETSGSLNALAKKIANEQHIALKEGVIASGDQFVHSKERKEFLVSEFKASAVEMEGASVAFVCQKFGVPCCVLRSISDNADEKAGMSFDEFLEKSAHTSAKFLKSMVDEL
SMILES,target,assay,test system,setting,scale,quantity,result
C=C[C@@]1(C)CC(=O)[C@]2(O)[C@@]3(C)[C@@H](O)CCC(C)(C)[C@@H]3[C@H](O)[C@H](OC(C)=O)[C@@]2(C)O1,Genome polyprotein NS3 helicase domain,"DNA binding, inhibitor",hepatitis C virus,"100 µM, together with: Cy5-dT15 DNA",,inhibition,0%
CCCC[C@H]1C(=O)N(C)[C@@H](CCCC)C(=O)N[C@@H](CCCCNC(=O)CN2CCN(CC(=O)O)CCN(CC(=O)O)CC2)C(=O)N[C@H](C(=O)NCC(N)=O)CSCC(=O)N[C@@H](Cc2ccc(O)cc2)C(=O)N(C)[C@@H](C)C(=O)N[C@@H](CC(N)=O)C(=O)N2CCC[C@H]2C(=O)N[C@@H](Cc2c[nH]cn2)C(=O)N[C@@H](CCC(=O)O)C(=O)N2C[C@H](O)C[C@H]2C(=O)N[C@@H](Cc2c[nH]c3ccccc23)C(=O)N[C@@H](CO)C(=O)N[C@@H](Cc2cn(CC(=O)O)c3ccccc23)C(=O)N1C [gallium-68 labelled],"CD274 (Homo sapiens, UniProt Q9NZQ7)",,U-87 MG,together with: anti-PD-L1 antibody block,,cell uptake,0.56%
CC[C@H](C)[C@H](NC(=O)[C@H](C)NC(=O)[C@H](CCSC)NC(=O)[C@H](C)NC(=O)[C@H](C)NC(=O)[C@H](Cc1ccc(O)cc1)NC(=O)[C@@H](NC(=O)[C@H](CCCCN)NC(=O)CNC(=O)[C@@H](NC(=O)[C@@H](NC(=O)[C@H](CCSC)NC(=O)[C@H](Cc1c[nH]cn1)NC(=O)CN)[C@@H](C)O)C(C)C)[C@@H](C)CC)C(=O)N[C@@H](CCSC)C(=O)N[C@@H](CCC(=O)O)C(=O)N[C@@H](Cc1ccc(O)cc1)C(=O)N[C@@H](Cc1ccc(O)cc1)C(=O)N[C@@H](CCCNC(=N)N)C(=O)N[C@@H](CCC(N)=O)C(=O)N[C@@H](CO)C(=O)N[C@@H](CCCCN)C(=O)N[C@@H](C)C(=O)N[C@@H](CCCCN)C(=O)N[C@@H](CCCCN)C(=O)N[C@@H](CC(C)C)C(=O)N[C@@H](CCC(N)=O)C(=O)N[C@@H](C)C(=O)N[C@@H](CCSC)C(=O)N[C@@H](CCCNC(=N)N)C(=O)O,CALM1 Ca2+-bound C-lobe,"binding, isothermal titration calorimetry",,"pH 7.4, 15 °C, Ca2+-bound C-lobe, together with: CaV2.1 IQ peptide",,stoichiometry,0.88 ± 0.16
COC(=O)c1sc(-c2cccs2)cc1NC(=O)/C=C/C(=O)O,"FABP5 (Homo sapiens, UniProt Q01469)","1,8-ANS displacement",,,baseline: FABP4 over FABP3,affinity ratio,5 to 15 fold
C[C@@H]1O[C@@H](O[C@H]2[C@H](Oc3cc(O)c(C(=O)CCc4ccc(O)cc4)c(O)c3)O[C@H](CO)[C@@H](O)[C@@H]2O)[C@H](O)[C@H](O)[C@H]1O,ESR1,array formation,PRL-HeLa,,baseline: EC50 ERβ over EC50 ERα,selectivity ratio,0.56
CS(=O)(=O)O.Cn1cc(C(F)(F)F)nc1-c1ccc(OCC(O)CNCCOc2ccc(O)c(C(N)=O)c2)cc1 (centres unmarked),Genome polyprotein NS3 helicase domain,"DNA binding, inhibitor",hepatitis C virus,"100 µM, together with: Cy5-dT15 DNA",,inhibition,0%
NCCC[C@H](N)C(=O)O,NAA80,"substrate, DTNB",,"2 mM, 30 min, 37 °C, together with: acetyl-CoA 500 µM",,product formation,1.23 µM
C=CC(=O)N1CCC(COCC(=O)N2CCN(c3nc(-c4cnc(N)nc4C(F)F)nc(N4CCOC[C@@H]4C)n3)CC2)CC1,"MAP2K4 (Homo sapiens, UniProt P45985)",KINOMEscan,,1 µM,,remaining binding,93%
CC(=O)N(CC#Cc1cccc(C(N)=O)c1)C[C@H]1C[C@@H](n2ccc3c(Cl)ncnc32)[C@H](O)[C@@H]1O,"7SK snRNA methylphosphate capping enzyme (MEPCE, Homo sapiens, UniProt Q7L2J0)",cellular thermal shift,HeLa cell lysate,50 µM,baseline: DMSO,Tagg shift,> 1 °C
O=C(COC(=O)c1cccc(N2C(=O)C3C4c5ccccc5C(c5ccccc54)C3C2=O)c1)c1ccccc1 (centres unmarked),"RORC (Homo sapiens, UniProt P51449)",cell-based,,concentration not given,,activity class,active
COc1ccc(-c2cc(=O)c3c(O)cc(OC)cc3o2)cc1,ESR1,array formation,PRL-HeLa,,baseline: EC50 ERβ over EC50 ERα,selectivity ratio,1.05
CC(N)=O,Genome polyprotein NS3 helicase domain,"DNA binding, inhibitor",hepatitis C virus,"100 µM, together with: Cy5-dT15 DNA",,inhibition,0%
COc1cccc2c(N3CCC(CCP(=O)(O)O)CC3)ncnc12,"ENPP1 (Homo sapiens, UniProt P22413)",inhibitor,,,,IC95,0.014 µg/mL
COc1ccccc1N(C)S(=O)(=O)c1ccc(C(=O)N2CCC(C#N)CC2)cc1,"WD repeat-containing protein 91 WD40 domain, residues 392–747",SPR,,45 µM,,binding,-2% and -3%
C[C@]12C[C@H](O)[C@H]3[C@@H](CCC4=CC(=O)CC[C@@]43C)[C@@H]1CC[C@@H]2C(=O)CO,Genome polyprotein NS3 helicase domain,"DNA binding, inhibitor",hepatitis C virus,"100 µM, together with: Cy5-dT15 DNA",,inhibition,0%
CCCCCCSC[C@H]1CN(Cc2c[nH]c3c(N)ncnc23)C[C@@H]1O,"Aminodeoxyfutalosine nucleosidase (Helicobacter pylori, UniProt Q9ZMY2)",inhibitor release from complex,,,,release half-life,18 min
CC[C@H](C)[C@H](NC(=O)[C@H](CCSC)NC(=O)[C@H](CCSC)NC(=O)[C@H](C)NC(=O)[C@H](C)NC(=O)[C@H](Cc1ccc(O)cc1)NC(=O)[C@@H](NC(=O)[C@H](CCCCN)NC(=O)CNC(=O)[C@@H](NC(=O)[C@@H](NC(=O)[C@H](CCSC)NC(=O)[C@H](Cc1c[nH]cn1)NC(=O)CN)[C@@H](C)O)C(C)C)[C@@H](C)CC)C(=O)N[C@@H](C)C(=O)N[C@@H](CCC(=O)O)C(=O)N[C@@H](Cc1ccc(O)cc1)C(=O)N[C@@H](Cc1ccc(O)cc1)C(=O)N[C@@H](CCCNC(=N)N)C(=O)N[C@@H](CCC(N)=O)C(=O)N[C@@H](CO)C(=O)N[C@@H](CCCCN)C(=O)N[C@@H](C)C(=O)N[C@@H](CCCCN)C(=O)N[C@@H](CCCCN)C(=O)N[C@@H](CC(C)C)C(=O)N[C@@H](CCC(N)=O)C(=O)N[C@@H](C)C(=O)N[C@@H](CCSC)C(=O)N[C@@H](CCCNC(=N)N)C(=O)O,"Calmodulin-1, Ca2+-bound N-lobe (CALM1, Homo sapiens, UniProt P0DP23)","binding, isothermal titration calorimetry",,"pH 7.4, 15 °C, N-lobe, CaV2.1 IQ domain, together with: Ca2+",,ΔS,25.9 ± 4.1 cal/mol/K
Nc1c(Br)cc(Br)cc1CN[C@H]1CC[C@H](O)CC1,"Glutamate receptor 2 (Homo sapiens, UniProt P42262)","ion current, agonist, SyncroPatch patch clamp",HEK293,3 µM,,activation,7%
Nc1ncnc2c1ncn2[C@@H]1O[C@H](CO[P@](=O)(O)O[P@](=O)(O)O[P@@](=O)(O)S)[C@@H](O)[C@H]1O,"GUK1 (Homo sapiens, UniProt Q16774)",ITC,,concentration not given,,ΔH of binding,-4.19 ± 0.09 kcal/mol
O=C(COP(=O)(O)O)[C@@H](O)[C@H](O)[C@H](O)COP(=O)(O)O,"ADP-ribosylation factor 3 (ARF3, Homo sapiens, UniProt P61204)","thermal proteome profiling, measured: ARF3",HepG2 cell lysate,"concentration not given, 57 over 37 °C",baseline: compound over control,thermal stability ratio,0.6 and 0.519
NCCCC[C@H](N)C(=O)O,NAA80,"substrate, DTNB",,"2 mM, 30 min, 37 °C, together with: acetyl-CoA 500 µM",,product formation,2.93 µM
COc1cc(F)ccc1-c1ncnc(Nc2cccc(C[S@](C)(=N)=O)c2)n1,"TSSK2 (Homo sapiens, UniProt Q96PF2)",kinase activity,,"10 µM, together with: 10 µM ATP",,remaining activity,92%
COc1cc(Nc2ncc3c(n2)-c2ccc(Cl)cc2C(c2c(F)cccc2OC)=NC3)ccc1C(=O)O,FLT4,kinase activity,,1 µM,,remaining activity,23%
CC[C@H](C)[C@H](NC(=O)[C@H](CCCCN)NC(=O)CNC(=O)[C@@H](NC(=O)[C@@H](NC(=O)[C@H](CCSC)NC(=O)[C@H](Cc1c[nH]cn1)NC(=O)CN)[C@@H](C)O)C(C)C)C(=O)N[C@@H](Cc1ccc(O)cc1)C(=O)N[C@@H](C)C(=O)N[C@@H](C)C(=O)N[C@@H](CCSC)C(=O)N[C@@H](CCSC)C(=O)N[C@@H](C)C(=O)N[C@@H](CCSC)C(=O)N[C@@H](CCC(=O)O)C(=O)N[C@@H](Cc1ccc(O)cc1)C(=O)N[C@@H](Cc1ccc(O)cc1)C(=O)N[C@@H](CCCNC(=N)N)C(=O)N[C@@H](CCC(N)=O)C(=O)N[C@@H](CO)C(=O)N[C@@H](CCCCN)C(=O)N[C@@H](C)C(=O)N[C@@H](CCCCN)C(=O)N[C@@H](CCCCN)C(=O)N[C@@H](CC(C)C)C(=O)N[C@@H](CCC(N)=O)C(=O)N[C@@H](C)C(=O)N[C@@H](CCSC)C(=O)N[C@@H](CCCNC(=N)N)C(=O)O,CALM1 Ca2+-bound C-lobe,"binding, isothermal titration calorimetry",,"pH 7.4, 15 °C, C-lobe, CaV2.1 IQ domain, together with: Ca2+",,ΔH,-3.27 ± 0.01 kcal/mol
COc1cc(/C=C2\CC/C(=C\c3ccc(O)c(OC)c3)C2=O)ccc1O,haemin,"binding, isothermal titration calorimetry",,"pH 7.4, 37 °C",,ΔG,-9.16 ± 0.478 kcal/mol
CCN1CCC[C@H]1CNC(=O)c1c(O)c(Cl)cc(Cl)c1OC,"Probable G-protein coupled receptor 45 (GPR45, Homo sapiens, UniProt Q9Y5Y3)","β-arrestin recruitment, TANGO luminescence, measured: GPR45",,concentration not given,baseline: basal luminescence,log2 fold change,-0.109
N=C(N)Nc1nc2ccccc2[nH]1,"HVCN1 (Homo sapiens, UniProt Q96D96, F182A)","proton current, inhibitor, inside-out patch clamp",,,,Hill coefficient,0.84 ± 0.05
O=C(NC1CCCS(=O)(=O)c2ccccc21)c1ccc2nc(O)cnc2c1 (centres unmarked),"WD repeat-containing protein 91 (Homo sapiens, UniProt A4D1P6)","binding, SPR steady state",,0.2344 µM,,SPR response,2.02 RU
COc1ccc(C(=O)N2CCC(C#N)CC2)cc1OC1CCN(C)CC1,"WD repeat-containing protein 91 WD40 domain, residues 392–747","binding, SPR single-concentration screen",,45 µM,,SPR response,-5.4 RU and -2.1 RU
CCCCCCCCC(=O)c1cc(O)c(O)c(O)c1,"Nuclear receptor subfamily 4 group A member 3, ligand-binding domain (Homo sapiens, UniProt Q92570)","reporter gene, Gal4 hybrid reporter",,10 µM,baseline: vehicle,activation,2.14 fold
CCc1cccc(N(C)C(N)=Nc2cccc3ccccc23)c1,Genome polyprotein NS3 helicase domain,"DNA binding, inhibitor",hepatitis C virus,"100 µM, together with: Cy5-dT15 DNA",,inhibition,1%
CCCCCCCCCCCCCCCCc1ccc([C@H]2CC[C@H]([N+](C)(C)CCC)CC2)cc1.[I-],"SPHK1 (Homo sapiens, UniProt Q9NYA1)","inhibitor, radiometric flash-plate",cell lysate,together with: sphingosine 10 µM,,Ki/Km ratio,2.7
